Results of several laboratories.
Lines come from different studies, so protocols differ.

Compound | tested on | assay | system | conditions | how to read | endpoint | value
COc1ncnn2ccc(-c3cnc4nc(C)n(Cc5nnc([C@@H](C)F)o5)c4c3)c12 |  |  | human | oral, dose not given, grade 2 |  | patients with nail discoloration | 0%
N[C@@H]1c2ccccc2OC12CCN(c1cnc3c(N4CCCc5ncccc54)n[nH]c3n1)CC2 |  | measured: Thrombocytopenia | human advanced or metastatic solid tumours | oral, 60 mg once daily, phase Ia pooled cohort |  | patients with treatment-related adverse event | 20%
C=CC(=O)Nc1cc(Nc2nccc(Nc3cc(Cl)c(F)cc3C(C)(C)O)n2)c(OC)cc1N1CC[C@@H](N(C)C)C1 |  |  | human patients | oral, 50 mg, treatment-emergent adverse events |  | patients with amylase increased | 0%
Cn1cncc1-c1c(F)cncc1NC(=O)c1c(N)nn2cc(F)cnc12 |  |  | human patients | oral, 220 mg once daily, 2 weeks on 1 week off |  | patients grade ≥3 Neutrophil count decrease | 0%
Cc1cn([C@H]2O[C@@H](CO[P@@](=O)(N[C@@H](C)C(=O)OC(C)C)Oc3ccccc3)[C@H](O)[C@H]2F)c(=O)[nH]c1=O |  | measured: Flu | human | 50 mg |  | patients with TEAE | 17%
C[C@@H]1OC(=O)NN=C1c1ccc(-c2ccc(F)cc2)c(C(F)(F)F)c1 |  | phase I trial, measured: Anaemia worst grade 3 | human patients | dose not given, all dose groups |  | patients with adverse event | 20%
CN(C)C(=O)c1cc2cnc(Nc3ccc(N4CCNCC4)cn3)nc2n1C1CCCC1 |  | measured: pulmonary embolism | human, HR+/HER2− advanced breast cancer | oral, dose not given, grade 3, CTCAE v4.03 |  | patients with adverse event | 1.5%
CC1CCN(CCCNC(=O)c2cc(Sc3ccc(F)cc3)nc3ccccc23)CC1 | Vero-E6 | CellTiter-Glo ATP |  | concentration not given, 72 h, retest 8-point duplicates | relative to: DMSO 0%, hyamine -100%, more negative, more toxic | cytotoxicity efficacy | 0%
Cn1nc(NS(C)(=O)=O)c2c(Cl)ccc(-n3c([C@H](Cc4cc(F)cc(F)c4)NC(=O)Cn4nc(C(F)F)c5c4C(F)(F)[C@@H]4C[C@H]54)nc4nc(OCCC(F)(F)F)ccc4c3=O)c21 |  | measured: total cholesterol grade 1 increase | human | 400 mg once daily, powder in bottle |  | patients with laboratory abnormality | 0%
Cc1ccc(Nc2ccnc(N3CCCC3C(=O)NCCCc3ccccc3)n2)cc1 (centres unmarked) | Vero-E6 | CellTiter-Glo ATP |  | 72 h, first round 5-point | relative to: DMSO 0%, hyamine -100%, more negative, more toxic | maximum response | -7.73%
COc1ccc(-c2c(-c3ccc(C#N)c(F)c3)nc(N3CCC(N)CC3)n(C)c2=O)cc1F |  | measured: biliary tract infection | human patients | oral, 60 mg, dose expansion |  | patients with serious TEAE | 5%
C[C@]1(O)C[C@@](N)(c2ccc(-c3nc4n(c3-c3ccccc3)COc3ccncc3-4)cc2)C1 |  |  | human, advanced or metastatic solid tumours | 20 mg once daily, phase I dose escalation |  | patients with Hyperglycemia TEAE | 16.7%
CNC(=O)c1cc(Oc2ccc(NC(=O)Nc3cc(C(C)(C)C)nn3-c3ccc4ncccc4c3)c(F)c2)ccn1 |  |  | human, trial | oral, dose not given, all doses |  | patients with related serious Nausea AE | 2%
O=C1Nc2cc3[nH]nc(-c4ccncc4)c3cc2CN1Cc1ccccc1 |  | CTCAE v4.03 | human, relapsed or refractory advanced solid tumours | intravenous, 3.6 mg/kg, pooled schedules |  | patients with QTc prolongation | 0%

Some of these lines once more:
Compound | tested on | assay | system | conditions | how to read | endpoint | value
C[C@@H]1OC(=O)NN=C1c1ccc(-c2ccc(F)cc2)c(C(F)(F)F)c1 |  | phase I trial, measured: Anaemia worst grade 3 | human patients | dose not given, all dose groups |  | patients with adverse event | 20%
